Results collected from several papers.
Numbered parts are unrelated; each lists some results of a single study. Positions count from the first letter of the parent shown.

Study 1
Target: CCNB2, cyclin fold, Cln2 fusion (human)
Technique: yeast growth competition, sequencing
Medium: yeast
Setting: weak parent motif
Relative to: not given
Direction: higher = stronger binding
Measurement: normalised enrichment score
Parent: RB1 docking peptide (human); PKPLKKLRFDIEG; partner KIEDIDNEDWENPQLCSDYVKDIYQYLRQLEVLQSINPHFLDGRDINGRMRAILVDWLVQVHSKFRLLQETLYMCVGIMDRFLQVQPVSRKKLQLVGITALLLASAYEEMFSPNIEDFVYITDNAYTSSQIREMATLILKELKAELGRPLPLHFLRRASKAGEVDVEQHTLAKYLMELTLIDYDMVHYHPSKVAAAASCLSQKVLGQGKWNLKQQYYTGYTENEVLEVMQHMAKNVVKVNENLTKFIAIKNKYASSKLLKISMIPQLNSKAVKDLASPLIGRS
L4F: 0.399
E12T: 0.517
L7W: 0.522
P1I: 0.247
I11Y: 0.205
D10F: 0.256
G13C: 0.748
R8H: 0.333
F9T: 0.156

Study 2
Target: Interferon regulatory factor 7, full length, phosphomimetic (IRF7, Homo sapiens, UniProt Q92985, residues 1-503, S471D/S472D/S475D/S476D/S477D/S483D/S484D/S487D)
Sequence of UniProt Q92985 (whole entry, unmodified, looked up): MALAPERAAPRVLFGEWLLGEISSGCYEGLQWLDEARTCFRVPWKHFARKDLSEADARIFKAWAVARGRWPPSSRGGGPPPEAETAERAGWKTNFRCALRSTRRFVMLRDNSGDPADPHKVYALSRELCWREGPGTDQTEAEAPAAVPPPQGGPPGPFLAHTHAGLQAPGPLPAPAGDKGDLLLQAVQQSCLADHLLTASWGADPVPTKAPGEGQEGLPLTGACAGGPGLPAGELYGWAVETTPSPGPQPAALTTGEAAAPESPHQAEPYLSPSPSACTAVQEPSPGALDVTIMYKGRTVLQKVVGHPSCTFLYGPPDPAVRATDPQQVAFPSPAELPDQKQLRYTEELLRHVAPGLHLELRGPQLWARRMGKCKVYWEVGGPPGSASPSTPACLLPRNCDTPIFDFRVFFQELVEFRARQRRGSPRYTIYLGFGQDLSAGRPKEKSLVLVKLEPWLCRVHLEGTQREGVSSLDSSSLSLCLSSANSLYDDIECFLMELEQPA
Technique: protein-binding microarray
Form: double-stranded DNA, one strand shown
Medium: in vitro
Concentration: 2200 nM top
Setting: 60-bp whole probe
Together with: salmon DNA 0.4 mg/ml
Relative to: random background probes
Direction: higher = stronger binding
Measurement: fitted relative affinity
All sequences stand within: GCCTAGCAC … GTCTTGATTCGCTTGACGCTGCTG
TTAGGTTTCGGTATCGGGTAGTGCTAG: 7.73 z-score
GACGGTAGCGGGTATCGGGACGTGCTA: -0.813 z-score
TTAGGGCTGCTTATCCTTTAGTGCTAG: -0.47 z-score
GACGGTAGCGGGTTTCGGGACGTGCTA: 0.707 z-score
GACGGTCTCCTTCTCCTGTCGTGCTAG: 1.61 z-score
TAAGGTCTCCTACTGCTTTAGTGCTAG: 0.435 z-score
GACGTACTGAGTATCGAGACGTGCTAG: 0.0876 z-score
CTCTAACTCAAGATTCCTCTCGTGCTA: 0.629 z-score
GACGATCTCAGCCTGGAGACGTGCTAG: -0.164 z-score
CTGTCTGAGGACACCCTGGCGTGCTAG: -0.185 z-score
TTAGGTTTCGACTATCGGTTGGTGCTA: 3.78 z-score
TTAGAACTGAGCCTCGATTAGTGCTAG: -0.461 z-score

Study 3
Target: Histone acetyltransferase KAT6A, winged helix 2, GST fusion (KAT6A, Homo sapiens, UniProt Q92794, residues 85-181)
Technique: protein binding microarray
Form: double-stranded DNA, one strand shown
Medium: in vitro
Concentration: not given
Setting: 8-mer, flanks averaged, mean of 2 arrays, mostly near background
Relative to: not given
Direction: higher = stronger binding
Measurement: E-score
Residues (chain): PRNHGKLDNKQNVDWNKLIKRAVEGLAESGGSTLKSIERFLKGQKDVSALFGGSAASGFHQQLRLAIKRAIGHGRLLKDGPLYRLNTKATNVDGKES
TACTGCTA: -0.0179
ACATTTGG: -0.244
AGCATAAC: -0.0319
CCAATTCA: -0.107
AAATCGAC: -0.0935
CCGGAACC: 0.129
CCCGCGGC: 0.189
CGCTAATA: 0.0222
ACTGAAGC: 0.079
GTTGGGCA: 0.0132
GTTAGTGA: -0.135
CATGCACG: -0.0471

Study 4
Target: RING finger protein unkempt homolog, zinc fingers 1-6, GST-SBP tag (UNK, Homo sapiens, UniProt Q9C0B0, residues 30-357)
Sequence of UniProt Q9C0B0 (30-357, looked up): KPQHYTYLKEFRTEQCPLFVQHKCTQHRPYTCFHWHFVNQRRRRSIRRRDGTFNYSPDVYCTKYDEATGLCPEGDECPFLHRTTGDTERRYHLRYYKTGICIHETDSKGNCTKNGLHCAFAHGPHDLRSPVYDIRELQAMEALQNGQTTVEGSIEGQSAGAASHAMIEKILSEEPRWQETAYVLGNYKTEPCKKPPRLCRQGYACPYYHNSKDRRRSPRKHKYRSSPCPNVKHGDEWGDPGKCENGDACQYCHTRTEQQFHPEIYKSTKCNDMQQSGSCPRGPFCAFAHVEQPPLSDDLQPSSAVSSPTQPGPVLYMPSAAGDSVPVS
Technique: RNA Bind-n-Seq
Form: RNA
Medium: in vitro
Concentration: not given
Setting: RNA with constant flanks, human and mouse sites, ends assumed
Relative to: input RNA pool
Direction: higher = stronger binding
Measurement: bound/input enrichment
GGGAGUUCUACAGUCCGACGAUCCAAGUUGGUGACCGUUGUUAUGAUGAAAAAAUGUAUGAUGCUGCUAAGUUGUUGUACAAUAAUGUUUCCAAUUUUGGACGUUUGGCAUCUACCCUGGUUCACCUGGGUGAAUAUCAGGCACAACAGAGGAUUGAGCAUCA: 0.172 ratio
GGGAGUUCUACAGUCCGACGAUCAAUGCUUGUUGGGUGCAUAAACACUUCACGGAAGACAUCCAGACGCGUCAGUACCGCUCCAUAGAGGUUUUAAUAGGAGCGGGGUACAGCACCCCUGCGGACAUCUGGAGCACGGCGUGUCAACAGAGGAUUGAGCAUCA: 0.242 ratio
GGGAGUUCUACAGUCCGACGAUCUUUAUGGCAUGUAAUGGUGUUUAGUAAUAUUUUAAUGUAGAUUUUGAUUUAUUUCAGCAAUAGUAAUUUUAAGAUAUUCUUUGAAUGAAAGUGUCUUCGUUUCUAUGAUACAGGUCAUUUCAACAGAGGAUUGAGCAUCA: 98.7 ratio
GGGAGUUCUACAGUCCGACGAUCUCUGGUCUCCUUGGAGAAAGGUUCUGUUGCCCUGAUUUAUGAACUCUAUAAUAGAGUAUAUAGGUUUUGUACCUUUUUUACAGGAAGGUGACUUUCUGUAACAAUGCGAUGUAUAUUAAACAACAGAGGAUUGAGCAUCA: 2.85 ratio
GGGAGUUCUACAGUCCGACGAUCUGGAACUGUUACUGCCUUGUCCUAGAGUUGUCCUGAUCAGGCUUGGGGCCUAGUUACAGAUUAGUCUUAAAGAAUUGCAUUAACUUAAAAAAAAUCAAACCUUGGCAAGAGCUAAAAUAACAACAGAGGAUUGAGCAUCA: 3.13 ratio
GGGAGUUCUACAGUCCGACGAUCCUCAGUGAUCACACACGAAAUUCUGCCGAAGGCACAGAAUAUUUCAAAAUGCUUGUAGACGUUUUUGCUCCAGAAUUUCGAAGGCCAAAGAAUAUACAUCUCCGAAAUUUCUAUAUAAUUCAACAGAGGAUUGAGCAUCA: 0.19 ratio
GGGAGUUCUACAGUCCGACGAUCACUUUAAGUUGUUGGAAUUCCUUUAAGAAGAGUAUAAAUUAUUUUUUUUAUUUAAAAGGAUAGUUGAUUCCUGGGGUACUUUGUUUUGAAAUUAGAAGUUGUUAAGGACACUUUUGUUGUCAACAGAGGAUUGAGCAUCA: 4.96 ratio
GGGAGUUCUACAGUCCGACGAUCUUAUGGUGCACUUUUUCGCUAUUUAAGUUGGAUAUUUCUCUACAUUCCUGAAACAAUUUUUAGGUUUUUUUUGUACUAGAAAAUGCAGGCAGUGUUUUCACAAAAGUAAAUGUACAGUGACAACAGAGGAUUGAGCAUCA: 1.2 ratio

Study 5
Target: ABI1, truncated, D143A, DHFR fusion (Arabidopsis thaliana)
Technique: DHFR PCA, deep sequencing
Medium: yeast
Setting: methotrexate growth selection, single substitutions
Together with: (+)-ABA 200 µM
Relative to: wild-type fitted maximum
Direction: higher = stronger binding
Measurement: relative binding score
Parent: PYL1, truncated, DHFR fusion (Arabidopsis thaliana); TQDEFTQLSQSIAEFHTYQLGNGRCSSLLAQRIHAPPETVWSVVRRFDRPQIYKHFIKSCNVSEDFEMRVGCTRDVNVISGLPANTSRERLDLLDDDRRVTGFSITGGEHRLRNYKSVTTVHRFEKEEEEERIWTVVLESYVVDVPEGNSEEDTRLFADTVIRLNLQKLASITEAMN; partner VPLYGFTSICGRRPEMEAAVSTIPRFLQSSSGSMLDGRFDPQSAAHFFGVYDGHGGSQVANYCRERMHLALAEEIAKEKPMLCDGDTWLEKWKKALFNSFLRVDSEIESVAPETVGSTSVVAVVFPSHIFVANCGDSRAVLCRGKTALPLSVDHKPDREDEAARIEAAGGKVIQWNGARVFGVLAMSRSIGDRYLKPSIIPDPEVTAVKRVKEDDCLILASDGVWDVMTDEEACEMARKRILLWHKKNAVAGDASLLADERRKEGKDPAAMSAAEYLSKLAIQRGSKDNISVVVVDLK
C72F: 94%
I52Y: 101%
R163Y: 42.3%
E147C: 94.5%
R90N: 68.4%
A175L: 92.4%
E125C: 105%
H122W: 0.521%
L28K: 80.6%
L156W: 91.2%
I105Y: -12.3%
R132V: 108%
V118N: 83.5%
P146F: 14.6%
G21A: 101%
V40K: -7.31%

Study 6
Target: Ras GTPase-activating protein-binding protein 1, RRM domain (G3BP1, Homo sapiens, UniProt Q13283)
Sequence of UniProt Q13283 (whole entry, looked up): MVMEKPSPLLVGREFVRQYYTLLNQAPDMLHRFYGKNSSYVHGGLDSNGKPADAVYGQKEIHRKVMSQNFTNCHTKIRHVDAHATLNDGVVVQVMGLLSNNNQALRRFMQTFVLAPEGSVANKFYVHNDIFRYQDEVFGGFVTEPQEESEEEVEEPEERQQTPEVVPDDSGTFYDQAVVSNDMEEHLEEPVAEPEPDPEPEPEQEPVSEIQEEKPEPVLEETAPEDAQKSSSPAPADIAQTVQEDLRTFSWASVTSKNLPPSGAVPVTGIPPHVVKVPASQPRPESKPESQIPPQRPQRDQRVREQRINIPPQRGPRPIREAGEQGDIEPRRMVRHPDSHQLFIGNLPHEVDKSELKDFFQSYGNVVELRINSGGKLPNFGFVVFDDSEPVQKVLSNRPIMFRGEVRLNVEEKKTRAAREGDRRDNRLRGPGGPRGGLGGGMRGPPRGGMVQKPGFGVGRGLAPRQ
Technique: RNA Bind-n-Seq
Form: RNA
Medium: in vitro
Concentration: 1 µM
Setting: whole 134-nt RNA, ends assumed
Together with: 150 mM KCl
Relative to: input library
Direction: higher = stronger binding
Measurement: log2 enrichment
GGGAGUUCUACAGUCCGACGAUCUAACUUUAGAGGAGGAUCUGAUGGAUAUGGCAGUGGACGUGGAUUUGGGGAUGGCUAUAAUAGGUAUGGAGGAGGACCUGGAGGUGGCAAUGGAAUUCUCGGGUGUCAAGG: -0.298
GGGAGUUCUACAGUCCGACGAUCUGGGAGGUGGAUUUUGUUUAUUUUUUUAGCUCAGUUCCAGGGGUGGGAAUUUUUUUUUAAUAUGUGUCAUGAAUAAAGUUGUUUUUGAAAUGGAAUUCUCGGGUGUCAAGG: 1.42
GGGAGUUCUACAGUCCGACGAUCAAGUCCUGUGCUACACAUCGUAUGUACCGAAUCGGAAAAGGGGAAAAGGGAAAAGGAAAGUAUUAUGUUACGCCGUUCGGAUCUGCACUUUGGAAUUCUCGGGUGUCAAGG: 0.0299
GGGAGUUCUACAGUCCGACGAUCAAACAGCUCUAUAACAAAAUACAAUGCGGGUUCAUGUUAAUGUUUUUAUCUCUAACAGGUUGGUUUCAGUGCUGAUGAAACUUGGGACUCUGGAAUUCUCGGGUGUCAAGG: -0.536
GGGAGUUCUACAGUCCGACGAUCUGGCGCUGUCCUGGACUUGAUGGGGGAUGAAGCCCAGAACCUGACGAGGGGCCGGCAGCAGCUCAAGUGGUGAGUGAUCGAGUGAGCCGCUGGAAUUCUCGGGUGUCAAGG: -0.434
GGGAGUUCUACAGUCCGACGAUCCUGUGCUACACAUCGUAUGUACCGAAUCGGGGCCCCCCCGGGGCCCCCCCGGCCCCCCCGGAAAGUAUUAUGUUACGCCGUUCGGAUCUGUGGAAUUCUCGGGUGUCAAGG: -0.714
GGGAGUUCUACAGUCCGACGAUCCAAGUCCUGUGCUACACAUCGUAUGUACCGAAUCGGGAGGGAAAAAAAGGGAGGGAAAGUAUUAUGUUACGCCGUUCGGAUCUGCACUUCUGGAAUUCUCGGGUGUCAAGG: 0.687
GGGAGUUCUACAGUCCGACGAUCCUCAAGUCCUGUGCUACACAUCGUAUGUACCGAAUCGGGUUGGGUUGGUUGGGAAAGUAUUAUGUUACGCCGUUCGGAUCUGCACUUCCAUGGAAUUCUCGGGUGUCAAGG: -0.027
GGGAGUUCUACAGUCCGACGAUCGUCCUGUGCUACACAUCGUAUGUACCGAAUCGGGGCCCCCCGGCCCCCCGGCCCCCCGGAAAGUAUUAUGUUACGCCGUUCGGAUCUGCAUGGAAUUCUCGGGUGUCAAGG: -0.397
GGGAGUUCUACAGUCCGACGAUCUGUGCUACACAUCGUAUGUACCGAAUCGGGAAAAAAAGGGAAAAAAAGGGGAAAAAAAGGGGAAAGUAUUAUGUUACGCCGUUCGGAUCUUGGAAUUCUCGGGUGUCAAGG: 0.318

Repeated from above (study 3):
ACATTTGG: -0.244
AGCATAAC: -0.0319
CCAATTCA: -0.107
AAATCGAC: -0.0935
CCGGAACC: 0.129
CCCGCGGC: 0.189
